Results gathered from unrelated publications.
Compare with care: the assays were run in different laboratories.
Organism: Acinetobacter baumannii

Structure (SMILES)	test	system	conditions	MIC
CCCCCCCCCCn1cc[n+](CCCCCCCCOc2cc(OCCCCCCCC[n+]3ccn(CCCCCCCCCC)c3)cc(OCCCCCCCC[n+]3ccn(CCCCCCCCCC)c3)c2)c1.[Br-].[Br-].[Br-]		ATCC 17978		16 µM
CCCCCCCC(=O)N[C@@H](CCN)C(=O)N[C@H](C(=O)N[C@@H](CCN)C(=O)N[C@H]1CCNC(=O)[C@H]([C@@H](C)O)NC(=O)[C@H](C)NC(=O)[C@H](CCN)NC(=O)[C@H](CC(C)C)NC(=O)[C@@H](Cc2ccccc2)NC(=O)[C@H](CCN)NC1=O)[C@@H](C)O	broth microdilution	ATCC 19606	20 h, 37 °C	> 512 µg/mL
CC[C@H]1OC(=O)[C@H](C)C(=O)[C@H](C)[C@@H](O[C@@H]2O[C@H](C)C[C@H](N(C)C)[C@H]2O)[C@](C)(OC)C[C@@H](C)C(=O)[C@H](C)[C@H]2N(CCCCn3cnc(-c4cccnc4)c3)C(=O)O[C@]12C	microbial growth	ATCC19606		> 32 µg/mL
CC1(C)[C@H](NC(=O)/C(=N\OCCN)c2nsc(N)n2)C(=O)N1OS(=O)(=O)O	agar dilution	16-16		32 µg/mL
CCCCCCCC(=O)N[C@@H](CCN)C(=O)N[C@H](C(=O)N[C@@H](CCN)C(=O)N[C@H]1CCNC(=O)[C@H]([C@@H](C)O)NC(=O)[C@H](CCN)NC(=O)[C@H](CCN)NC(=O)[C@H]([C@@H](C)O)NC(=O)[C@@H](CC(C)C)NC(=O)[C@H](CCN)NC1=O)[C@@H](C)O		ATCC 17978, CAMHB	20 h, 37 °C	2 µg/mL
CN[C@H](CC(C)C)C(=O)N[C@H]1C(=O)N[C@@H](CC(N)=O)C(=O)N[C@H]2C(=O)N[C@H]3C(=O)N[C@H](C(=O)N[C@H](C(=O)NCc4cn(CC(=O)N[C@H](C(=O)N[C@@H](CCN)C(=O)N[C@H]5CCNC(=O)[C@H]([C@@H](C)O)NC(=O)[C@H](CCN)NC(=O)[C@H](CCN)NC(=O)[C@H](CC(C)C)NC(=O)[C@@H](CC(C)C)NC(=O)[C@H](CCN)NC5=O)[C@@H](C)O)nn4)c4cc(O)cc(O)c4-c4cc3ccc4O)[C@H](O)c3ccc(c(Cl)c3)Oc3cc2cc(c3O[C@@H]2O[C@H](CO)[C@@H](O)[C@H](O)[C@H]2O[C@H]2C[C@](C)(N)[C@H](O)[C@H](C)O2)Oc2ccc(cc2Cl)[C@H]1O	broth microdilution	ATCC 17978, cation-adjusted Mueller-Hinton broth	18 to 20 h, 37 °C, 0.002% polysorbate 80	128 µg/mL
C#CCNC(=O)C(C)(C)O/N=C(\C(=O)N[C@@H]1C(=O)N(S(=O)(=O)O)[C@H]1C)c1csc(N)n1	agar dilution	ATCC 19606		64 µg/mL
COc1ccc2ccc(O)c(/C=N/[C@H]3CCCC[C@H]3/N=C/c3cc(F)ccc3O)c2c1	bacterial growth, broth microdilution	carbapenem-resistant clinical isolate		> 40 µM
CC[C@H](C)[C@H](NC(=O)[C@@H](CCCNC(=N)N)NC(=O)[C@H](CCCNC(=N)N)NC(=O)[C@@H]1CCCN1C(=O)[C@@H]1CCCN1C(=O)[C@H](CCCNC(=N)N)NC(=O)[C@@H]1CCCN1C(=O)[C@H](CCCNC(=N)N)NC(=O)[C@@H]1CCCN1C(=O)[C@H](CC(C)C)NC(=O)[C@H](Cc1ccc(O)cc1)NC(=O)[C@@H]1CCCN1C(=O)[C@@H]1CCCN1C(=O)[C@H](CCCNC(=N)N)NC(=O)[C@H](CC(=O)O)NC(=O)[C@@H](N)C(C)C)C(=O)N[C@@H](Cc1ccc(O)cc1)C(=O)N[C@@H](CC(N)=O)C(=O)N[C@H](CCCNC(=N)N)C(N)=O	broth microdilution	DSM 30008	18 h, 37 °C, 25% MHB2	32 µg/mL
CCCCCCC#Cc1cncc(-c2nnc(SCc3cc([N+](=O)[O-])cc([N+](=O)[O-])c3)n2C)c1	microbial growth, broth dilution	ATCC17978		> 64 µg/mL
CC[C@H]1OC(=O)[C@H](C)[C@@H](OC(=O)Cc2c(F)cccc2F)[C@H](C)[C@@H](O[C@@H]2O[C@H](C)C[C@H](N(C)C)[C@H]2O)[C@](C)(OC)C[C@@H](C)C(=O)[C@H](C)[C@@H](O)[C@]1(C)O		DSM 30007		64 µM
CCCCCCn1cc[n+](CCCCCCCCOc2cc(OCCCCCCCC[n+]3ccn(CCCCCC)c3)cc(OCCCCCCCC[n+]3ccn(CCCCCC)c3)c2)c1.[Br-].[Br-].[Br-]		ATCC 17978		1 µM
CC1(C)[C@H](NC(=O)/C(=N\OCC(=O)N2CCC(C(=O)O)CC2)c2csc(N)n2)C(=O)N1OS(=O)(=O)O	agar dilution	16-16		> 64 µg/mL
COc1cc(C(=O)O)ccc1NC(=O)c1ccc(NC(=O)c2ccc(NC(=O)[C@H](Cc3c[nH]nn3)NC(=O)c3ccc(NC(=O)/C(C)=C/c4ccc(O)cc4)cc3)cc2)c(OC)c1O	broth microdilution	ciprofloxacin-resistant		8 µg/mL
CCCCCCCC(=O)N[C@@H](CCN)C(=O)N[C@H](C(=O)N[C@@H](CN)C(=O)N[C@H]1CCNC(=O)[C@H]([C@@H](C)O)NC(=O)[C@H](CCN)NC(=O)[C@H](CCCN)NC(=O)[C@H]([C@@H](C)O)NC(=O)[C@@H](CC(C)C)NC(=O)[C@H](CCN)NC1=O)[C@@H](C)O		ATCC 17978, CAMHB	20 h, 37 °C	0.5 µg/mL
CCCCCCCC(=O)N[C@@H](C)C(=O)N[C@H](C(=O)N[C@@H](CCN)C(=O)N[C@H]1CCNC(=O)[C@H]([C@@H](C)O)NC(=O)[C@H](CCN)NC(=O)[C@H](CCN)NC(=O)[C@H](CC(C)C)NC(=O)[C@@H](Cc2ccccc2)NC(=O)[C@H](CCN)NC1=O)[C@@H](C)O	broth microdilution	ATCC 19606	20 h, 37 °C	512 µg/mL
CCOc1c(NC(=O)c2ccc(NC(=O)c3ccc(NC(=O)[C@H](Cc4c[nH]nn4)NC(=O)c4ccc(NC(=O)/C(C)=C/c5ccc(O)cc5)cc4)cc3)c(OC)c2O)ccc(C(=O)O)c1O	broth microdilution	ciprofloxacin-resistant		0.5 µg/mL
C#CCO/N=C(\C(=O)N[C@@H]1C(=O)N(OS(=O)(=O)O)C1(C)C)c1nsc(N)n1	agar dilution	ATCC 19606		> 64 µg/mL
CN[C@H](CC(C)C)C(=O)N[C@H]1C(=O)N[C@@H](CC(N)=O)C(=O)N[C@H]2C(=O)N[C@H]3C(=O)N[C@H](C(=O)N[C@H](C(=O)O)c4cc(O)cc(O)c4-c4cc3ccc4O)[C@H](O)c3ccc(c(Cl)c3)Oc3cc2cc(c3O[C@@H]2O[C@H](CO)[C@@H](O)[C@H](O)[C@H]2O[C@H]2C[C@](C)(NCc3ccc(OCc4cn(CCCCC(=O)N[C@H](C(=O)N[C@@H](CCN)C(=O)N[C@H]5CCNC(=O)[C@H]([C@@H](C)O)NC(=O)[C@H](CCN)NC(=O)[C@H](CCN)NC(=O)[C@H](CC(C)C)NC(=O)[C@@H](CC(C)C)NC(=O)[C@H](CCN)NC5=O)[C@@H](C)O)nn4)c(OC)c3)[C@H](O)[C@H](C)O2)Oc2ccc(cc2Cl)[C@H]1O	broth microdilution	BAA-747, cation-adjusted Mueller-Hinton broth	18 to 20 h, 37 °C, 0.002% polysorbate 80	32 µg/mL
CCCCCCCCCCCCCCCCCCn1cc(CN(CCC(=O)NCCN(CCC(=O)NCCN(CCC(=O)NCCN(C)C)CCC(=O)NCCN(C)C)CCC(=O)NCCN(CCC(=O)NCCN(C)C)CCC(=O)NCCN(C)C)CCC(=O)NCCN(CCC(=O)NCCN(CCC(=O)NCCN(C)C)CCC(=O)NCCN(C)C)CCC(=O)NCCN(CCC(=O)NCCN(C)C)CCC(=O)NCCN(C)C)nn1	LB broth microdilution		18 h	6 µg/mL
COc1ccc2ccc(O)c(/C=N/[C@H]3CCCC[C@H]3/N=C/c3ccc(C)cc3O)c2c1	bacterial growth, broth microdilution	carbapenem-resistant clinical isolate		> 40 µM
CCCCCCCC[N+](C)(C)CCCCCCCCOc1cc(OCCCCCCCC[N+](C)(C)CCCCCCCC)cc(OCCCCCCCC[N+](C)(C)CCCCCCCC)c1.[Br-].[Br-].[Br-]		ATCC 17978		2 µM
CC[C@H]1OC(=O)[C@H](C)[C@@H](OC(=O)Cc2ccc3c(c2)OCO3)[C@H](C)[C@@H](O[C@@H]2O[C@H](C)C[C@H](N(C)C)[C@H]2O)[C@](C)(OC)C[C@@H](C)C(=O)[C@H](C)[C@@H](O)[C@]1(C)O		DSM 30007		16 µM
C#CCOc1ccc(CN[C@@]2(C)C[C@H](O[C@H]3[C@H](Oc4c5cc6cc4Oc4ccc(cc4Cl)[C@@H](O)[C@@H](NC(=O)[C@@H](CC(C)C)NC)C(=O)N[C@@H](CC(N)=O)C(=O)N[C@H]6C(=O)N[C@H]4C(=O)N[C@H](C(=O)N[C@H](C(=O)N[C@@H](CCCNC(=N)N)C(N)=O)c6cc(O)cc(O)c6-c6cc4ccc6O)[C@H](O)c4ccc(c(Cl)c4)O5)O[C@H](CO)[C@@H](O)[C@@H]3O)O[C@@H](C)[C@H]2O)cc1OC	broth microdilution	BAA-747, cation-adjusted Mueller-Hinton broth	18 to 20 h, 37 °C, 0.002% polysorbate 80	128 µg/mL
CCCCCCCC(=O)N[C@@H](CCN)C(=O)N[C@H](C(=O)N[C@@H](C)C(=O)N[C@H]1CCNC(=O)[C@H]([C@@H](C)O)NC(=O)[C@H](CCN)NC(=O)[C@H](CCN)NC(=O)[C@H](CC(C)C)NC(=O)[C@@H](Cc2ccccc2)NC(=O)[C@H](CCN)NC1=O)[C@@H](C)O	CLSI broth microdilution	248-01-C.248, CAMHB	20 h, 37 °C	4 µg/mL
CC1(C)[C@H](NC(=O)/C(=N\OCc2c(Cl)cccc2Cl)c2csc(N)n2)C(=O)N1OS(=O)(=O)O	agar dilution	ATCC 19606		> 64 µg/mL
CC[C@H]1OC(=O)[C@H](C)[C@@H](OC(=O)Cc2c(F)cc([N+](=O)[O-])cc2F)[C@H](C)[C@@H](O[C@@H]2O[C@H](C)C[C@H](N(C)C)[C@H]2O)[C@](C)(OC)C[C@@H](C)C(=O)[C@H](C)[C@@H](O)[C@]1(C)O	microbial growth	ATCC19606 DSM30007		8 to 32 µg/mL
C=CCO/N=C(\C(=O)N[C@@H]1C(=O)N(S(=O)(=O)O)[C@H]1C)c1csc(N)n1	agar dilution	ATCC 19606		8 µg/mL
CCCCCCCCCCn1cc[n+](CCCCCCOc2cc(OCCCCCC[n+]3ccn(CCCCCCCCCC)c3)cc(OCCCCCC[n+]3ccn(CCCCCCCCCC)c3)c2)c1.[Br-].[Br-].[Br-]		ATCC 17978		2 µM
CCCCCCCC(=O)N[C@@H](CCN)C(=O)N[C@H](C(=O)N[C@@H](CCN)C(=O)N[C@H]1CCNC(=O)[C@H]([C@@H](C)O)NC(=O)[C@H](CCN)NC(=O)[C@H](CCN)NC(=O)[C@H](CC(C)C)NC(=O)[C@@H](Cc2ccccc2)NC(=O)[C@H](C)NC1=O)[C@@H](C)O	CLSI broth microdilution	248-01-C.248, CAMHB	20 h, 37 °C	> 512 µg/mL

Repeated from above:
Structure (SMILES)	test	system	conditions	MIC
CC[C@H]1OC(=O)[C@H](C)[C@@H](OC(=O)Cc2c(F)cc([N+](=O)[O-])cc2F)[C@H](C)[C@@H](O[C@@H]2O[C@H](C)C[C@H](N(C)C)[C@H]2O)[C@](C)(OC)C[C@@H](C)C(=O)[C@H](C)[C@@H](O)[C@]1(C)O	microbial growth	ATCC19606 DSM30007		8 to 32 µg/mL
C=CCO/N=C(\C(=O)N[C@@H]1C(=O)N(S(=O)(=O)O)[C@H]1C)c1csc(N)n1	agar dilution	ATCC 19606		8 µg/mL
CCCCCCCCCCn1cc[n+](CCCCCCOc2cc(OCCCCCC[n+]3ccn(CCCCCCCCCC)c3)cc(OCCCCCC[n+]3ccn(CCCCCCCCCC)c3)c2)c1.[Br-].[Br-].[Br-]		ATCC 17978		2 µM
